{"data": "Results from different studies", "B1": "BMP2 mature (UniProt P12643); sequence looked up; chain QAKHKQRKRLKSSCKRHPLYVDFSDVGWNDWIVAPPGYHAFYCHGECPFPLADHLNSTNHAIVQTLVNSVNSKIPKACCVPTELSAISMLYLDENEKVVLKNYQDMVVEGCGCR", "B2": "adrenodoxin (Homo sapiens, UniProt P10109); RED dye on amines; sequence looked up; chain SSSEDKITVHFINRDGETLTTKGKVGDSLLDVVVENNLDIDGFGACEGTLACSTCHLIFEDHIYEKLDAITDEENDMLDLAYGLTDRSRLGCQICLTKSMDNMTVRVPETVADARQSIDVGKTS", "B3": "GABBR2 42-466 (Homo sapiens, UniProt O75899); sequence looked up; chain WARGAPRPPPSSPPLSIMGLMPLTKEVAKGSIGRGVLPAVELAIEQIRNESLLRPYFLDLRLYDTECDNAKGLKAFYDAIKYGPNHLMVFGGVCPSVTSIIAESLQGWNLVQLSFAATTPVLADKKKYPYFFRTVPSDNAVNPAILKLLKHYQWKRVGTLTQDVQRFSEVRNDLTGVLYGEDIEISDTESFSNDPCTSVKKLKGNDVRIILGQFDQNMAAKVFCCAYEENMYGSKYQWIIPGWYEPSWWEQVHTEANSSRCLRKNLLAAMEGYIGVDFEPLSSKQIKTISGKTPQQYEREYNNKRSGVGPSKFHGYAYDGIWVIAKTLQRAMETLHASSRHQRIQDFNYTDHTLGRIILNAMNETNFFGVTGQVVFRNGERMGTIKFTQFQDSREVKVGEYNAVADTLEIINDTIRFQGSEPPKD", "B4": "GSTP1 3-210 (Homo sapiens, UniProt P09211); QSY 35 label; chain PYTVVYFPVRGRCAALRMLLADQGQSWKEEVVTVETWQEGSLKASCLYGQLPKFQDGDLTLYQSNTILRHLGRTLGLYGKDQQEAALVDMVNDGVEDLRCKYISLIYTNYEAGKDDYVKALPGQLKPFETLLSQNQGGKTFIVGDQISFADYNLLDLLLIHEVLAPGCLDAFPLLSAYVGRLSARPKLKAFLASPEYVNLPINGNGKQ", "B5": "UGT1A9 (Homo sapiens, UniProt O60656); chain GKLLVVPMDGSHWFTMRSVVEKLILRGHEVVVVMPEVSWQLGRSLNCTVKTYSTSYTLEDLDREFKAFAHAQWKAQVRSIYSLLMGSYNDIFDLFFSNCRSLFKDKKLVEYLKESSFDAVFLDPFDNCGLIVAKYFSLPSVVFARGILCHYLEEGAQCPAPLSYVPRILLGFSDAMTFKERVRNHIMHLEEHLLCHRFFKNALEIASEILQTPVTEYDLYSHTSIWLLRTDFVLDYPKPVMPNMIFIGGINCHQGKPLPMEFEAYINASGEHGIVVFSLGSMVSEIPEKKAMAIADALGKIPQTVLWRYTGTRPSNLANNTILVKWLPQNDLLGHPMTRAFITHAGSHGVYESICNGVPMVMMPLFGDQMDNAKRMETKGAGVTLNVLEMTSEDLENALKAVINDKSYKENIMRLSSLHKDRPVEPLDLAVFWVEFVMRHKGAPHLRPAAHDLTWYQYHSLDVIGFLLAVVLTVAFITFKCCAYGYRKCLGKKGRVKKAHKSKTH", "B6": "KLRK1/HCST (Homo sapiens); terbium label on SNAP-tag; chain MGWIRGRRSRHSWEMSEFHNYNLDLKKSDFSTRWQKQRCPVVKSKCRENASPFFFCCFIAVAMGIRFIIMVTIWSAVFLNSLFNQEVQIPLTESYCGPCPKNWICYKNNCYQFFDESKNWYESQASCMSQNASLLKVYSKEDQDLLKLVKSYHWMGLVHIPTNGSWQWEDGSILSPNLLTIIEMQKGDCALYASSFKGYIENCSTPNTYICMQRTV", "B7": "EIF2S1 2-183 (Homo sapiens, UniProt P05198); sequence looked up; chain PGLSCRFYQHKFPEVEDVVMVNVRSIAEMGAYVSLLEYNNIEGMILLSELSRRRIRSINKLIRIGRNECVVVIRVDKEKGYIDLSKRRVSPEEAIKCEDKFTKSKTVYSILRHVAEVLEYTKDEQLESLFQRTAWVFDDKYKRPGYGAYDAFKHAVSDPSILDSLDLNEDEREVLINNINRR", "B8": "PDE6H (Homo sapiens, UniProt Q13956); sequence looked up; chain MSDNTTLPAPASNQGPTTPRKGPPKFKQRQTRQFKSKPPKKGVKGFGDDIPGMEGLGTDITVICPWEAFSHLELHELAQFGII", "B9": "enzyme (Bacillus pumilus, UniProt A8FFI9); chain EARSIAWSVDEFFKNREGTFVIQEVKEKSPWVYNKKRAKERFAPQSTFKVANALIGLQTGAVRDEYDIKYWDGVKREIDNWNRDHTLGSGMRDSVVWYYQAMARDIGEERMNHWVKAIHYGNKDISGGIDQFWLSSTLRISPIEQVRFLKQLYEETLPFDLKNMRTVKRMMVQEEEKHATLYGKTGSGSDIGWYVGFIKHEHKTYILATNIKGTGIEAKDITYRILKKYHLMEASV", "note": "Each line is one published result; not all experiments were run side by side. Numbers after ± are the reported error. Where no end group is shown, it is not given here. * marks the point of attachment.", "sequence of UniProt Q61851 (whole entry, looked up)": "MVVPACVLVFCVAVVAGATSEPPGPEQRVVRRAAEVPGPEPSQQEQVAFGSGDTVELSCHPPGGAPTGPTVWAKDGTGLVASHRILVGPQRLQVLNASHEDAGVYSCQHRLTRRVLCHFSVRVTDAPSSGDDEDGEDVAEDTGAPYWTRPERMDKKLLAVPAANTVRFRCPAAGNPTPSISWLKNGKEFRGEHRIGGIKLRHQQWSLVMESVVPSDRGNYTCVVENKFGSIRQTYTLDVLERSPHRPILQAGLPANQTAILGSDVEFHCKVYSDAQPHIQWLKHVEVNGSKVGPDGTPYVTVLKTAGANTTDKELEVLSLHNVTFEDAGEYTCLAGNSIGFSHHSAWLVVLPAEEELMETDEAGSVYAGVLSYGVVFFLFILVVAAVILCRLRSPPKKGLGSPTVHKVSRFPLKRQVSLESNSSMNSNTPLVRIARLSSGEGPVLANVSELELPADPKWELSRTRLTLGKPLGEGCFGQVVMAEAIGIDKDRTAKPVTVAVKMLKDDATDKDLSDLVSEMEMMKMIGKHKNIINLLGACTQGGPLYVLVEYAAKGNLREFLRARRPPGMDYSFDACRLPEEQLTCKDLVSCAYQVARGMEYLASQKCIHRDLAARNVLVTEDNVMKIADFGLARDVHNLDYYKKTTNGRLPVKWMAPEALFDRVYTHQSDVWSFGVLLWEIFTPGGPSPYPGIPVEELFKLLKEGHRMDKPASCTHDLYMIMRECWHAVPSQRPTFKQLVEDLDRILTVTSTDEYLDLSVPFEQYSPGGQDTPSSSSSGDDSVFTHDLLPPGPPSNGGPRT", "sequence of UniProt P23458 (whole entry, looked up)": "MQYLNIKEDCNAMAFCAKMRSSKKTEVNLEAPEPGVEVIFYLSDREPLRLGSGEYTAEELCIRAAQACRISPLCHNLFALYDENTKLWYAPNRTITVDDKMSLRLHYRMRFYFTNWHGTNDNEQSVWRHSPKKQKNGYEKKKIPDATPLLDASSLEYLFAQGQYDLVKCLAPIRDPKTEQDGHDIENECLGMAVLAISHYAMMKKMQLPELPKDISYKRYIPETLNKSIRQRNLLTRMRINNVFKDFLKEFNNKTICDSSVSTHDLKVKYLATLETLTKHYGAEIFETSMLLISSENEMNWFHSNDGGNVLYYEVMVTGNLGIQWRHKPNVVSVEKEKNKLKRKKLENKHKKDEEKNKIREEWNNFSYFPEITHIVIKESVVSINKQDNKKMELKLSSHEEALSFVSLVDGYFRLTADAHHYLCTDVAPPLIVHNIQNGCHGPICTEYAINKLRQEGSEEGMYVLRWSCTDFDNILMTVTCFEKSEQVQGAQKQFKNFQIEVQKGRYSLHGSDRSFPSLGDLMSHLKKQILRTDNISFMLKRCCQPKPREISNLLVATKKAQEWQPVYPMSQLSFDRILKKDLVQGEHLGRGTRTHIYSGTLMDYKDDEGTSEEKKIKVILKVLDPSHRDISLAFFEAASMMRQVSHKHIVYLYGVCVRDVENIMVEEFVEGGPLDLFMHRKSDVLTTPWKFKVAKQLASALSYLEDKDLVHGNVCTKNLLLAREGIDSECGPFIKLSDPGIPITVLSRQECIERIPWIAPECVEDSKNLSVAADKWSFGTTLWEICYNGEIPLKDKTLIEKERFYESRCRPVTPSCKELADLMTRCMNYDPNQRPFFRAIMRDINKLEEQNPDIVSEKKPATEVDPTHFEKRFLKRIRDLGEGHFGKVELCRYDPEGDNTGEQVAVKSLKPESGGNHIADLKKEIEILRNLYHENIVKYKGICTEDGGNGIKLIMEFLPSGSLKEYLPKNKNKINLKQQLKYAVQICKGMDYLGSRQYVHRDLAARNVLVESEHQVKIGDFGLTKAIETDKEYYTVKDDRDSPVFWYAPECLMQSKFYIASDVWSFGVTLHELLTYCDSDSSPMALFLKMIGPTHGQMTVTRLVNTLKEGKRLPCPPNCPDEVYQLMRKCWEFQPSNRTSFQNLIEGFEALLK", "sequence of UniProt Q9BQI3 (whole entry, unmodified, looked up)": "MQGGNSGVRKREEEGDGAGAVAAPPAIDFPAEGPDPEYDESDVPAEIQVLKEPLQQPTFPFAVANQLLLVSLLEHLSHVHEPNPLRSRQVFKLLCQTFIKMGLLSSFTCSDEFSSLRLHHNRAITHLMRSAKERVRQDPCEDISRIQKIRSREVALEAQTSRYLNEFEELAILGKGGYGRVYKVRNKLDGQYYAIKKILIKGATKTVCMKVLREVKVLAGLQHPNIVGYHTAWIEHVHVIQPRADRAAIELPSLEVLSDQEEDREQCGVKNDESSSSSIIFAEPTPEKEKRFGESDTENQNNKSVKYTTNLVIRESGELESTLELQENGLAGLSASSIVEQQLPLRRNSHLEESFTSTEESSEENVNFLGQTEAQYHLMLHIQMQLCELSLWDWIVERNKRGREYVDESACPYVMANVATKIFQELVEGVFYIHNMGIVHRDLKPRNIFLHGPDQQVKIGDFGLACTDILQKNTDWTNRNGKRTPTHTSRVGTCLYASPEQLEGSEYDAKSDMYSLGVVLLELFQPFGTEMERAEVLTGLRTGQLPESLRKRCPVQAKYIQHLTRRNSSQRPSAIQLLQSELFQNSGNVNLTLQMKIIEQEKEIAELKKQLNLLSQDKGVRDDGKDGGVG", "sequence of UniProt P30041 (whole entry, looked up)": "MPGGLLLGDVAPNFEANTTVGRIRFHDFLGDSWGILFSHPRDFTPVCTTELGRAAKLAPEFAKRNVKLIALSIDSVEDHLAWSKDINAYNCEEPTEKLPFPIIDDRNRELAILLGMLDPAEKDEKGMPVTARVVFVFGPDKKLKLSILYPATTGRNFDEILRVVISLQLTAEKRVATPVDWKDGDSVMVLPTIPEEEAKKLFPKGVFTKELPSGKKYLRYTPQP", "sequence of UniProt Q29983 (whole entry, looked up)": "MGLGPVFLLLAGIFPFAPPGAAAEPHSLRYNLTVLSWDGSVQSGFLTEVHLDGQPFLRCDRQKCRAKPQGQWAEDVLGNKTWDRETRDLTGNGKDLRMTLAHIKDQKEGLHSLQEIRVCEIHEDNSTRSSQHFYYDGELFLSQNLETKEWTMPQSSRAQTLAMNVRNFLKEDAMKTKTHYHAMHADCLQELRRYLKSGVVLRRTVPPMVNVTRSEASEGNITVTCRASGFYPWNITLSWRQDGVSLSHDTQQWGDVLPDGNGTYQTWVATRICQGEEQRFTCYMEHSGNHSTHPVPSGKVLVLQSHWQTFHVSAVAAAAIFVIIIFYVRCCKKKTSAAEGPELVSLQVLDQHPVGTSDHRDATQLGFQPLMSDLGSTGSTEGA", "sequence of UniProt Q4G0S4 (whole entry, looked up)": "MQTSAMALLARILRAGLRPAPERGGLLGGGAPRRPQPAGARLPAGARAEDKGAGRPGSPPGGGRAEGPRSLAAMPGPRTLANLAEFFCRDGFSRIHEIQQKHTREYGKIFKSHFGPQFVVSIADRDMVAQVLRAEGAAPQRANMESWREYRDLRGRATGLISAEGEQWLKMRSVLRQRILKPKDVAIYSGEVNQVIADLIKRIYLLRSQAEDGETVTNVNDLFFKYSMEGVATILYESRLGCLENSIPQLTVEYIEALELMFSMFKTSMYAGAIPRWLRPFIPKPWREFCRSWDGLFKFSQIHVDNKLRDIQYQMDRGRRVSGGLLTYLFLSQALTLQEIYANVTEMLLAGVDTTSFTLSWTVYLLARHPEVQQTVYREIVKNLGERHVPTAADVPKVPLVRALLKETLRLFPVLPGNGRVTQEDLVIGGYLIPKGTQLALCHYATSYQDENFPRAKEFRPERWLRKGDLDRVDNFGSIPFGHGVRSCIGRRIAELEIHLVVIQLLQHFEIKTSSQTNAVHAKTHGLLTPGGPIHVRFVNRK", "sequence of UniProt Q9Y3C6 (whole entry, looked up)": "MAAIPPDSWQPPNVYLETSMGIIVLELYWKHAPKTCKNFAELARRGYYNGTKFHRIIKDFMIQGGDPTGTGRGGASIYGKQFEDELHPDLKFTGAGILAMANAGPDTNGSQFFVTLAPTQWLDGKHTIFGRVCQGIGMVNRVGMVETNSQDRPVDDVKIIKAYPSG", "sequence of UniProt P52731 (whole entry, looked up)": "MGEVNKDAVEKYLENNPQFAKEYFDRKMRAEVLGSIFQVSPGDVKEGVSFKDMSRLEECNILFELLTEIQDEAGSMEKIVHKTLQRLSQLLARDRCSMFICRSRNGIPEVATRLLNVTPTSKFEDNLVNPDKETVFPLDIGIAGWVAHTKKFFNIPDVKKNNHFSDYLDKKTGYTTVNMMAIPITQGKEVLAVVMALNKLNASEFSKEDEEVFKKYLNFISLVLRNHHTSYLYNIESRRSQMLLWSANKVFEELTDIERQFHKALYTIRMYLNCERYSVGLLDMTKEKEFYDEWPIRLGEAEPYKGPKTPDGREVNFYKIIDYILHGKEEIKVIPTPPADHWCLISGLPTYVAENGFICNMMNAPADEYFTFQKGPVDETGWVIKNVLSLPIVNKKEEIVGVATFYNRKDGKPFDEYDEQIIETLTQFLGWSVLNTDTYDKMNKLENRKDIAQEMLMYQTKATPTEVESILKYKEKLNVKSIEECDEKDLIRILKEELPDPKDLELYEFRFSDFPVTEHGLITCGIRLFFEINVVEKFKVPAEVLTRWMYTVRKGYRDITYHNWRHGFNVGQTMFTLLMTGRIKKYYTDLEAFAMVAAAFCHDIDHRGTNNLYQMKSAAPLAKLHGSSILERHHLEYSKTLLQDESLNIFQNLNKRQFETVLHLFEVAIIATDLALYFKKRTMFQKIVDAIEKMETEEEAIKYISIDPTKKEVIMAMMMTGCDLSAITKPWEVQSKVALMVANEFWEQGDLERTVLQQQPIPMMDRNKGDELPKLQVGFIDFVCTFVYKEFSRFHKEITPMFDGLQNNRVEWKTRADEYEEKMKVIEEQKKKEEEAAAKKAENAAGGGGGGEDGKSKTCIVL"}
{"Molecule": "Biotin-FAPEFGPENPFRT-NH2 (CDC40 peptide residues 89-101 (Homo sapiens); SMILES C[C@H](NC(=O)[C@H](Cc1ccccc1)NC(=O)CCCC[C@@H]1SC[C@@H]2NC(=O)N[C@@H]21)C(=O)N1CCC[C@H]1C(=O)N[C@@H](CCC(=O)O)C(=O)N[C@@H](Cc1ccccc1)C(=O)NCC(=O)N1CCC[C@H]1C(=O)N[C@@H](CCC(=O)O)C(=O)N[C@@H](CC(N)=O)C(=O)N1CCC[C@H]1C(=O)N[C@@H](Cc1ccccc1)C(=O)N[C@@H](CCCNC(=N)N)C(=O)N[C@H](C(N)=O)[C@@H](C)O; C-terminal amide; Biotin = O=C1N[C@H]2[C@H](CS[C@H]2CCCCC(=O)*)N1)", "target or system": "PPIL1 (Homo sapiens, UniProt Q9Y3C6)", "test": "ITC", "test system": "peptide", "setting": "one-site fit", "quantity": "Kd", "result": "112000 ± 4000 nM"}
{"Molecule": "B1 (BMP2 mature)", "target or system": "Grem2 22-168, glutathionylated (Mus musculus, UniProt O88273)", "test": "SPR", "setting": "pH 7.5, 25 °C, NaCl 500 mM, apparent, steady-state", "quantity": "Kd", "result": "54.1 ± 5.6 nM"}
{"Molecule": "B2 (adrenodoxin)", "target or system": "CYP27C1 81-542 (Homo sapiens, UniProt Q4G0S4)", "test": "MST", "setting": "pH 7.4, 25 °C, oxidized, single-site model", "quantity": "Kd", "result": "220 nM"}
{"Molecule": "B3 (GABBR2 42-466)", "target or system": "GABBR1 30-459 (Homo sapiens, UniProt Q9UBS5-2)", "test": "ITC", "quantity": "Kd", "result": "94.9 nM"}
{"Molecule": "B4 (GSTP1 3-210)", "target or system": "PRDX6 1-224, Alexa 546 label (Homo sapiens, UniProt P30041)", "test": "FRET", "setting": "pH 7.4, apparent, together with: GSH 1 mM", "quantity": "Kd", "result": "51 nM"}
{"Molecule": "B5 (UGT1A9)", "target or system": "O=c1c(O)c(-c2ccccc2O)oc2cc(O)cc(O)c12", "test": "steady-state kinetics", "setting": "pH 7.4, 37 °C", "quantity": "Vmax/Km", "result": "100 µL/min/mg"}
{"Molecule": "SIYNFEKL", "target or system": "OT-I CD8+ T cells", "test system": "peptide", "setting": "concentration not given, primed 5 d, OVA257 100 ng/mL restimulation, together with: no TGF-beta1", "quantity": "TNF-alpha+ cells", "result": "65.3%"}
{"Molecule": "KTLMGNPWFQRAKMPRALDFSGHTHPVATFQPSRPESVNDLFLCPQKELT (IFNLR1 250-299 (Homo sapiens, UniProt Q8IU57); sequence looked up)", "target or system": "JAK1 35-559 (Homo sapiens, UniProt P23458)", "test": "BLI", "test system": "peptide", "setting": "apparent, effective Kd", "quantity": "Kd", "result": "70.5 nM"}
{"Molecule": "FGF8b (Homo sapiens)", "target or system": "FGFR3 isoform IIIc (unknown, UniProt Q61851)", "test": "cell proliferation, MTT", "test system": "BaF3-FGFR3c", "setting": "20 nM, 48 h, together with: chondroitin sulfate E 4.9 µg/mL", "scale": "reference: FGF 1 with heparin, higher = more proliferation", "quantity": "cell proliferation", "result": "47%"}
{"Molecule": "B6 (KLRK1/HCST)", "target or system": "MICA 24-297, Alexa Fluor 647 on Cys273 (Homo sapiens, UniProt Q29983)", "test": "TR-FRET", "test system": "HEK293 TRex", "setting": "apparent, in cells", "quantity": "Kd", "result": "200 nM"}
{"Molecule": "{5,6‑carboxyfluorescein}-FNATLFALVRTALRIKTEGNLE (CACNA1C 1588-1609 (Oryctolagus cuniculus); N-terminal fluorescein)", "target or system": "Calm1 (Rattus norvegicus, UniProt P0DP29)", "test": "fluorescence polarisation", "test system": "peptide", "setting": "pH 7.4, 22 °C, 100 mM KCl, without Ca2+", "quantity": "Kd", "result": "215000 ± 38000 nM"}
{"Molecule": "B7 (EIF2S1 2-183)", "target or system": "EIF2AK1 1-592 T488A/T493A (Homo sapiens, UniProt Q9BQI3)", "test": "BLI", "setting": "pH 8.0, NaCl 100 mM", "quantity": "Kd", "result": "16 nM"}
{"Molecule": "B8 (PDE6H)", "target or system": "PDE6C GAF-A/GAF-B 42-458 (Gallus gallus, UniProt P52731)", "test": "BLI", "setting": "pH 7.5, 26 °C, NaCl 150 mM, without cGMP", "quantity": "Kd", "result": "36100 nM"}
{"Molecule": "SIIVFEKL", "target or system": "OT-I CD8+ T cells", "test system": "peptide", "setting": "concentration not given, primed 5 d, OVA257 100 ng/mL restimulation, together with: no TGF-beta1", "quantity": "TNF-alpha+ cells", "result": "72.3%"}
{"Molecule": "B9 (enzyme)", "target or system": "CC1(C)S[C@@H]2[C@H](NC(=O)[C@H](C(=O)O)c3ccsc3)C(=O)N2[C@H]1C(=O)O", "test": "steady-state kinetics", "setting": "pH 7", "quantity": "kcat/Km", "result": "1.1e+06 ± 200000 M⁻¹ s⁻¹"}
{"note": "A few entries again:"}
{"Molecule": "SIIVFEKL", "target or system": "OT-I CD8+ T cells", "test system": "peptide", "setting": "concentration not given, primed 5 d, OVA257 100 ng/mL restimulation, together with: no TGF-beta1", "quantity": "TNF-alpha+ cells", "result": "72.3%"}
{"Molecule": "B9 (enzyme)", "target or system": "CC1(C)S[C@@H]2[C@H](NC(=O)[C@H](C(=O)O)c3ccsc3)C(=O)N2[C@H]1C(=O)O", "test": "steady-state kinetics", "setting": "pH 7", "quantity": "kcat/Km", "result": "1.1e+06 ± 200000 M⁻¹ s⁻¹"}
